Assay results pooled from the literature.
Lines come from different studies, so protocols differ.

C[C@@H](Nc1cc(F)cc(F)c1)c1cc(C(=O)N(C)C)cc2c(=O)cc(N3CCOCC3)oc12 — Cmax (human; oral, 180 mg twice daily, day 1, 5:2 schedule, single dose, range): 1250 to 1940 ng/mL
O=C(COc1ccc(Cl)cc1)NC12CC(c3nnc([C@H]4C[C@@H](OC(F)(F)F)C4)o3)(C1)C2 — Cmax (healthy human both sexes, plasma; oral, 200 mg once daily, day 1, mean): 2290 nM
CCn1cc(C(=O)N2CCOCC2)c(=O)c2cc(NC3Cc4ccccc4C3)cnc21 — Cmax (human, fasted; oral suspension, 600 mg single dose, arithmetic mean): 809 ng/mL
O=C(O)CCC(=O)O.[2H]C([2H])([2H])Oc1cc(C)c2[nH]ccc2c1CN1CC[C@@H](C2CC2)C[C@H]1c1ccc(C(=O)O)cc1 — Cmax (human, plasma; 125 mg twice daily, day 1, multiple ascending dose, geometric mean): 1710 ng/mL
Cl.[2H]C([2H])([2H])CC(=O)c1cnc(NC(=O)C2CC2)cc1Nc1cccc(-c2ncn(C([2H])([2H])[2H])n2)c1OC — Cmax (human, fed, multiple dose; oral, 30 mg twice daily, tablet, day 1, geometric mean): 182 ng/mL
COc1ncc(-c2nc3c(n2C(C)C)[C@H](c2ccc(Cl)cc2)N(c2cc(Cl)cn(C)c2=O)C3=O)c(OC)n1 — Cmax (LC-MS/MS; human, plasma; oral, 30 mg, cycle 1 day 14, low-dose arm): 157 ng/mL
COc1cc(N2CCC(N3CCN(C)CC3)CC2)ccc1Nc1ncnc(Nc2ccccc2S(=O)(=O)C(C)C)n1 — Cmax (human, plasma; oral, 200 mg, day 1): 382 ng/mL
CO[C@H]1C[C@@H]2CC[C@@H](C)[C@@](O)(O2)C(=O)C(=O)N2CCCC[C@H]2C(=O)O[C@H]([C@H](C)C[C@@H]2CC[C@@H](OC(=O)NCCOCCOCCOCCOCCOCCOCCOCCOCCC(=O)N3CCc4cc(Cn5nc(-c6ccc7oc(N)nc7c6)c6c(N)ncnc65)ccc4C3)[C@H](OC)C2)C[C@@H](O)[C@H](C)/C=C(\C)[C@@H](O)[C@@H](OC)C(=O)[C@H](C)C[C@H](C)/C=C/C=C/C=C/1C — Cmax (human, plasma; intravenous, 12 mg, cycle 1 day 1, arithmetic mean): 504 ng/mL
C[C@@H]1CCO[C@H]2Cn3cc(C(=O)NCc4ccc(F)cc4F)c(=O)c(O)c3C(=O)N12 — Cmax (human, body weight 25 to <30 kg, plasma; oral, 22.4 mg, granules, steady state): 4090 ng/mL
CCN1CCN(Cc2ccc(Nc3ncc(F)c(-c4cc(F)c5nc6n(c5c4)[C@H](C)CCC6)n3)nc2)CC1 — Cmax (human, plasma; 500 mg multiple dosing, mean): 476 ng/mL
C=CC(=O)N(C)CCOc1c(N)ncnc1-c1cc(F)cc(NC(=O)c2ccc(C3CC3)cc2F)c1C — Cmax (human, whole blood; oral, 100 mg single dose): 141 ng/mL

A few entries again:
Cl.[2H]C([2H])([2H])CC(=O)c1cnc(NC(=O)C2CC2)cc1Nc1cccc(-c2ncn(C([2H])([2H])[2H])n2)c1OC — Cmax (human, fed, multiple dose; oral, 30 mg twice daily, tablet, day 1, geometric mean): 182 ng/mL
COc1ncc(-c2nc3c(n2C(C)C)[C@H](c2ccc(Cl)cc2)N(c2cc(Cl)cn(C)c2=O)C3=O)c(OC)n1 — Cmax (LC-MS/MS; human, plasma; oral, 30 mg, cycle 1 day 14, low-dose arm): 157 ng/mL
